Values quoted from earlier work as cited in several papers.
Each numbered part shows a few of the values that one paper quotes. ± gives the spread as reported. Converted amounts (≈) assume the structure as drawn.
Chain of UniProt P18031 (whole entry, looked up): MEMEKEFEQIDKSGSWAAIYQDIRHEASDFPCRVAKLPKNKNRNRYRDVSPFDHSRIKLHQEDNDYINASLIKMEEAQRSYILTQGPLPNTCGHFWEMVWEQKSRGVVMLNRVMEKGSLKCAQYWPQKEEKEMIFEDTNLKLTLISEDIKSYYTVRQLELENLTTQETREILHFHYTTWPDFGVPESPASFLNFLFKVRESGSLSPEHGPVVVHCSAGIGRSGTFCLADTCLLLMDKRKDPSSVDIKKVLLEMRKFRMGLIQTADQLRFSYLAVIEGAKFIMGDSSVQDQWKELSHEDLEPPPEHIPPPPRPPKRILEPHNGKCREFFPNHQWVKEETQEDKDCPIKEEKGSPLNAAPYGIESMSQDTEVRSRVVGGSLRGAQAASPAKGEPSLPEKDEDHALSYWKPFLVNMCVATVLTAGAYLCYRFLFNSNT
Chain of UniProt P43144 (whole entry, looked up): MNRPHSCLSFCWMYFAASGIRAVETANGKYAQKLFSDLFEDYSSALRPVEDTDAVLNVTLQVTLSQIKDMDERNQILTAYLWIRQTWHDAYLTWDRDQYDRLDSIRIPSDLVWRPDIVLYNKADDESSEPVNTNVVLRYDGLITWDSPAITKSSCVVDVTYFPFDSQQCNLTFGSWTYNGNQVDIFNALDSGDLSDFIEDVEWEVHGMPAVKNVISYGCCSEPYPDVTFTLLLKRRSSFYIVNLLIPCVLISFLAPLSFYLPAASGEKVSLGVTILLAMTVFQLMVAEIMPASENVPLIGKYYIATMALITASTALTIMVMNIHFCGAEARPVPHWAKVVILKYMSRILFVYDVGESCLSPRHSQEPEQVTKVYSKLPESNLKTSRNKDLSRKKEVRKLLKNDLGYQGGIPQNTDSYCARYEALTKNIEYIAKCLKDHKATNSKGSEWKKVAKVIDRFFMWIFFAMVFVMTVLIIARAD
Chain of UniProt Q9JLB5 (whole entry, looked up): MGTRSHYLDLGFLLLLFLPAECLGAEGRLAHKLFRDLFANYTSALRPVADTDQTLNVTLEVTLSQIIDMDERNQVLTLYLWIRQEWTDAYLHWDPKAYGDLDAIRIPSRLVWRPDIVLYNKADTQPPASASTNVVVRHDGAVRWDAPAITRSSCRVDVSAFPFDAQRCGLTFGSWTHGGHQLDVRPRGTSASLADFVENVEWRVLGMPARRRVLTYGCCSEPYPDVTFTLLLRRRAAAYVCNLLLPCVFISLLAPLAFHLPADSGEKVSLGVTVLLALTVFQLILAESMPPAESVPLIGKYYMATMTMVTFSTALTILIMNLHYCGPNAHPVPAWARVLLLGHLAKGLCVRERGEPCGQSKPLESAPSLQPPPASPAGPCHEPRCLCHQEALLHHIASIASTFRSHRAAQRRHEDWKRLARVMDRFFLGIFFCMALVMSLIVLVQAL

Sample 1 — effect on: peptide-MHC binding; molecule type: peptide
Target: HLA class I histocompatibility antigen, A alpha chain, allele A*25:01 (Homo sapiens, UniProt P04439)
For `FAAPHRGVA`, the IC50 was > 20 µM.
`YALTEYHAM` gave an IC50 of > 20 µM.
`NRDVSFQDL` gave an IC50 of > 20 µM.
`MHGHGKHIL` has an IC50 of > 20 µM.
`FTGWRDPGL` has an IC50 of > 20 µM.
The IC50 of `GAWCYDYTV` is reported as > 20 µM.
The IC50 of `TMGPHPAGV` is reported as > 20 µM.
With `GMHDGTVGK` the IC50 was > 20 µM.
`YQAENSTAE` gave an IC50 of > 20 µM.
`RPPYSSYGY` gave an IC50 of > 20 µM.
`KVGFIMLFH` gave an IC50 of > 20 µM.
`FHIVNQESL` gave an IC50 of > 20 µM.
`KVADVDLAVPV` gave an IC50 of > 20 µM.
For `NNIEFNFTY`, the IC50 was > 20 µM.
For `SVFALLPPQ`, the IC50 was > 20 µM.

Other studies, line by line
O=S(=O)(O)C(F)(F)C(F)(F)C(F)(F)C(F)(F)C(F)(F)C(F)(F)F gave a renal clearance of 0.033 mL/day/kg (human, young female).
For C=C(C)[C@@H]1CC[C@@H](C)[C@@H]2CCC(C)=C[C@@H]21, the IC50 was ~50 µM (PTPN1 (Homo sapiens, UniProt P18031); enzyme activity, inhibitor).
CO/N=C(\C(=O)N[C@@H]1C(=O)N2C(C(=O)O)=C(CSc3nc(=O)c(=O)[nH]n3C)CS[C@H]12)c1csc(N)n1 has an MIC of 16 µg/mL (≈ 28.9 µM) (Escherichia coli; bacterial growth; colistin-resistant).
Cc1ccc(C(=O)Nc2ccc(Oc3cc4cnn(C)c4cc3-c3cn[nH]c3)c(F)c2)c(=O)n1-c1ccc(F)cc1 — result for “time to treatment failure”: 1.4 months (human; concentration not given).
CC(C)C[C@H](NC(=O)CNC(=O)c1cc(Cl)ccc1Cl)B(O)O — result for “fraction unbound in plasma”: 0.01 (plasma).
CC(NCCc1ccc(O)cc1)C(O)c1ccc(O)cc1 (stereo not drawn) gave an AUC of 0.03 to 0.322 µM·h (human, plasma; dose not given, range of reported values).
CN1CCc2[nH]c3ccccc3c2CC1 gave an IC50 of 5.1 ± 0.3 µM (Nicotinic acetylcholine receptor alpha9/alpha10 (Rattus norvegicus, UniProt P43144+Q9JLB5); inhibitor; together with: 100 µM acetylcholine).
Cc1cc(-c2nccc3c2ccn3CC(=O)Nc2ccc(-c3cnccn3)cn2)ccn1 has an NOAEL of 20 mg/kg/day (rat; bone findings).
CC[n+]1c(-c2ccccc2)c2cc(N)ccc2c2ccc(N)cc21: “DNA binding constant” 1.2e+06 M⁻¹ (calf thymus DNA; ethidium bromide displacement).
For BP(=O)(OCC1CCC(n2ccc(N)nc2=O)O1)OP(=O)(O)OP(=O)(O)O (stereo not drawn), “relative incorporation efficiency” read 28 fold (drug-resistant MMLV reverse transcriptase; Rp stereoisomer; relative to: ddCTP).
For N[C@@]1(c2ccccc2Cl)CCCCC1=O, Cmax read “increased” (mouse; dose not given, together with: 1-ABT and ticlopidine; relative to: without CYP inhibitors).
For c1c[nH]cn1, “association rate constant” read 160 M⁻¹ s⁻¹ (metmyoglobin).
O=C(O)C(F)(F)C(F)(F)C(F)(F)C(F)(F)C(F)(F)C(F)(F)C(F)(F)C(F)(F)C(F)(F)C(F)(F)F has a renal clearance of 0.045 mL/day/kg (human, young female).
With COC(=O)C(c1ccccc1)C1CCCCN1 (stereo not drawn) the AUC was 0.101 to 1150 µM·h (human, plasma; dose not given, range of reported values).
CC(C)(O/N=C(\C(=O)N[C@@H]1C(=O)N2C(C(=O)[O-])=C(C[n+]3ccccc3)CS[C@H]12)c1csc(N)n1)C(=O)O has an MIC of 16 µg/mL (≈ 29.3 µM) (Escherichia coli; bacterial growth; colistin-resistant).

Excerpt of the above (sample 1):
`FTGWRDPGL` has an IC50 of > 20 µM.
`YALTEYHAM` gave an IC50 of > 20 µM.
With `GMHDGTVGK` the IC50 was > 20 µM.
`NRDVSFQDL` gave an IC50 of > 20 µM.
